Results of several laboratories.
Numbered parts are unrelated; each lists some results of a single study.

Study 1 — method: protein binding microarray; form: double-stranded DNA, one strand shown; sample: in vitro; concentration: not given; baseline: not given; reading: higher = stronger binding
Target: Histone acetyltransferase KAT6A, winged helix 1, GST fusion (KAT6A, Homo sapiens, UniProt Q92794, residues 1-85)
Notes: 8-mer, flanks averaged, mean of 2 arrays, mostly near background
Target sequence (chain): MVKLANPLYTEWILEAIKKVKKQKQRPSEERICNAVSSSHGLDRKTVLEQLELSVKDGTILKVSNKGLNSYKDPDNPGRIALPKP
Sequence | E-score
AAGATGGT | -0.255
GAGGGATA | -0.074
AGTTACTA | -0.175

Study 2 — method: protein-binding microarray; form: double-stranded DNA, one strand shown; sample: in vitro; concentration: 940 nM top; notes: 60-bp whole probe; together with: salmon DNA 0.4 mg/ml; baseline: random background probes; reading: higher = stronger binding
Target: Interferon regulatory factor 5, full length, phosphomimetic (IRF5, Homo sapiens, UniProt Q13568-2, residues 1-514, S451D/S453D/S456D/S462D)
Sequence | fitted relative affinity
GCCTAGCACTTAGCTTTCGACTATCGGTTAGTGCTAGTCTTGATTCGCTTGACGCTGCTG | 3.26 z-score
GCCTAGCACACACTTTCCCCTTCCTAGTTGTGCTAGGTCTTGATTCGCTTGACGCTGCTG | 2.42 z-score
GCCTAGCACTTAGGACTGGAATTTCGGTTAGTGCTAGTCTTGATTCGCTTGACGCTGCTG | 0.24 z-score
GCCTAGCACTTAGGTTTCCAACTGCTTTAGTGCTAGGTCTTGATTCGCTTGACGCTGCTG | 0.0885 z-score

Study 3 — method: universal PBM; form: double-stranded DNA, one strand shown; sample: in vitro; concentration: not given; reading: higher = stronger binding
Target: Sal-like protein 4, full length isoform B (SALL4, Homo sapiens, UniProt Q9UJQ4-2, residues 1-616)
Notes: 8-mer, flanks averaged, mean of replicates
Residues (chain): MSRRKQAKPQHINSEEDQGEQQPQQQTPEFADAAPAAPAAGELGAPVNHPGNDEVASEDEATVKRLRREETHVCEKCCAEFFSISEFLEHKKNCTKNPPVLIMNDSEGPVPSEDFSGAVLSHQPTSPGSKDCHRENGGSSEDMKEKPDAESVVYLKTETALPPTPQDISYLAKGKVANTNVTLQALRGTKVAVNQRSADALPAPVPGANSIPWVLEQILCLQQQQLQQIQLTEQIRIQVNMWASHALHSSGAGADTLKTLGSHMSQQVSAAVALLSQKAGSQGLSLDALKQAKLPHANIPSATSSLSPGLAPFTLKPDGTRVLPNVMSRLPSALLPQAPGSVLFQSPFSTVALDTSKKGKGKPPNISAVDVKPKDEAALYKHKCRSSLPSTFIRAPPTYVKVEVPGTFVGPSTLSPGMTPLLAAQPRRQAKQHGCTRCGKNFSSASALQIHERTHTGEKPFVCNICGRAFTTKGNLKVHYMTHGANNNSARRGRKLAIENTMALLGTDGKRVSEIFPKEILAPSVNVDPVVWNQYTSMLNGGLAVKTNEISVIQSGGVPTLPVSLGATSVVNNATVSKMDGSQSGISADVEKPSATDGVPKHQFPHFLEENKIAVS
Sequence | E-score
AAACCAAG | 0.122
GGTTTAGA | 0.106
AAAAGTTC | 0.264

Single results of other studies
Molecule | target | test | system | setting | scale | endpoint | result
PhoQ, residues 284 288 289 292 302 303 NSMLDC | PhoP, residues 12 14 15 18 19 FWNTL (Escherichia coli, UniProt P23836) | Sort-seq, item: YFP reporter | E. coli | PhoQ-PhoP variant library, together with: 10 µM Mg2+ | baseline: high Mg2+ state, higher = stronger signaling | fold induction | 18.2

A few entries again (study 3):
Sequence | E-score
GGTTTAGA | 0.106
